{"data": "Measured values gathered from unrelated publications", "cell line": "HT-29", "note": "Each line is one published result; not all experiments were run side by side. ± marks the error that the study gave."}
{"Compound": "COc1c(C)c(OC(=O)c2ccc(C)cc2)c(C)c(O)c1C(=O)/C=C/c1ccccc1", "assay": "SRB", "scale": "reference: normal over HT-29 IC50", "measurement": "selectivity index", "value": 0.95}
{"Compound": "CCOc1ccc(-c2nc3cc(-c4nc5cc(N6CCN(C)CC6)ccc5[nH]4)ccc3[nH]2)cc1OCC", "assay": "SRB", "conditions": "10 µM, 48 h", "measurement": "growth percent", "value": "19.4%"}
{"Compound": "O=C(/C=C/C=C/C=C/C1CCCCC1)NC1=C[C@@](O)(/C=C/C=C/C=C/C(=O)NC2=C(O)CCC2=O)[C@@H]2O[C@@H]2C1=O", "assay": "cell growth, CellTiter-Glo", "conditions": "78 h", "measurement": "GI50", "value": "20.8 µM"}
{"Compound": "COc1c(C)c(OC)c(C(=O)/C=C/c2ccccc2)c(OC)c1C", "assay": "SRB", "scale": "reference: normal over HT-29 IC50", "measurement": "selectivity index", "value": 0.85}
{"Compound": "CCCCN1CCN(c2ccc3[nH]c(-c4ccc5[nH]c(-c6ccc(C(F)(F)F)cc6)nc5c4)nc3c2)CC1", "assay": "SRB", "conditions": "10 µM, 48 h", "measurement": "growth percent", "value": "-49.5%"}
{"Compound": "CNC(=O)c1ccc2c(c1)ncn2-c1ccc(CC(=O)OC(C)(C)C)cc1", "assay": "necroptosis", "conditions": "concentration not given, added: TNF", "measurement": "activity", "value": "active"}
{"Compound": "CCCCN1CCN(c2ccc3[nH]c(-c4ccc5[nH]c(-c6cc(OC)c(OC)c(OC)c6)nc5c4)nc3c2)CC1", "assay": "SRB", "conditions": "10 µM, 48 h", "measurement": "growth percent", "value": "56%"}
{"Compound": "CCOC(=O)CSc1nc(-c2ccc(Cl)cc2)c2c(NC(=O)c3ccccc3)nnc-2[nH]1", "assay": "SRB", "conditions": "10 µM, NCI60 single-dose screen, colon cancer", "scale": "reference: untreated", "measurement": "cell growth", "value": "109%"}
{"Compound": "c1ccc([I+]c2ccccc2)cc1", "assay": "cell growth, trypan blue count", "conditions": "48 h", "measurement": "IC50", "value": "~5.8 µM"}
{"Compound": "O=C(Nc1nnc2n3c(=S)[nH][nH]c3nc(-c3ccc(Cl)cc3)c1-2)c1ccccc1", "assay": "SRB", "conditions": "10 µM, NCI60 single-dose screen, colon cancer", "scale": "reference: untreated", "measurement": "cell growth", "value": "117%"}
{"Compound": "CN1CCN(c2ccc3[nH]c(-c4ccc5[nH]c(-c6ccc(C(F)(F)F)cc6)nc5c4)nc3c2)CC1", "assay": "SRB", "conditions": "10 µM, 48 h", "measurement": "growth percent", "value": "29.2%"}
{"Compound": "COc1c(C)c(OC(C)=O)c(C)c(OC(C)=O)c1C(=O)/C=C/c1ccccc1", "assay": "SRB", "scale": "reference: normal over HT-29 IC50", "measurement": "selectivity index", "value": 0.75}
{"Compound": "CCN(CC)c1ccc(C=NNC(=O)CSc2nc3ccccc3c(=O)n2Cc2ccc(S(N)(=O)=O)cc2)c(O)c1", "assay": "NCI five-dose screen", "measurement": "TGI", "value": "> 100 µM"}
{"Compound": "CCCC(=O)Oc1c(C)c(O)c(C(=O)/C=C/c2ccccc2)c(OC)c1C", "assay": "SRB", "scale": "reference: normal over HT-29 IC50", "measurement": "selectivity index", "value": 0.92}
{"Compound": "NNc1nc(-c2ccc(Cl)cc2)c2c(NC(=O)c3ccccc3)nnc-2[nH]1", "assay": "SRB", "conditions": "10 µM, NCI60 single-dose screen, colon cancer", "scale": "reference: untreated", "measurement": "cell growth", "value": "105%"}
{"Compound": "CCCN1CCN(c2ccc3[nH]c(-c4ccc5[nH]c(-c6ccc(C(F)(F)F)cc6)nc5c4)nc3c2)CC1", "assay": "SRB", "conditions": "10 µM, 48 h", "measurement": "growth percent", "value": "-44%"}
{"Compound": "S=C([S][Au-][P+](CCCCCC[P+]([Au-][S]C(=S)n1cccn1)(c1ccccc1)c1ccccc1)(c1ccccc1)c1ccccc1)n1cccn1", "assay": "cell growth, NCI-60 screen", "conditions": "colon cancer", "measurement": "log10 TGI", "value": "> -4"}
{"Compound": "C=CCOc1c(C)c(O)c(C(=O)/C=C/c2ccccc2)c(OC)c1C", "assay": "SRB", "scale": "reference: normal over HT-29 IC50", "measurement": "selectivity index", "value": 0.91}
{"Compound": "O=C(Nc1nnc2n3c(Cc4ccccc4)n[nH]c3nc(-c3ccc(Cl)cc3)c1-2)c1ccccc1", "assay": "SRB", "conditions": "10 µM, NCI60 single-dose screen, colon cancer", "scale": "reference: untreated", "measurement": "cell growth", "value": "111%"}
{"Compound": "C#C[C@@]1(O)[C@@H](CO)O[C@@H](n2cc(Br)c3c(N)ncnc32)[C@@H]1O", "assay": "SRB", "conditions": "NCI-60 screen", "measurement": "TGI", "value": "> 100 µM"}
{"Compound": "CCCCN1CCN(c2ccc3nc(-c4ccc5nc(-c6cc(OC)ccc6OC)[nH]c5c4)[nH]c3c2)CC1", "assay": "SRB", "conditions": "10 µM, 48 h", "measurement": "growth percent", "value": "91.6%"}
{"Compound": "COc1cnc2cccc(N3CCc4c(cc(Cn5ccnc5C)cc4-c4cn(C)nc4C(F)(F)F)C3=O)c2c1", "assay": "cell growth, inhibitor", "conditions": "120 h", "measurement": "EC50", "value": "31.3 µM"}
{"Compound": "Cc1cc(C)n(-c2nc(-c3ccc(Cl)cc3)c3c(NC(=O)c4ccccc4)nnc-3[nH]2)n1", "assay": "SRB", "conditions": "10 µM, NCI60 single-dose screen, colon cancer", "scale": "reference: untreated", "measurement": "cell growth", "value": "75.7%"}
{"Compound": "COc1cccc(OC)c1-c1cc(C(=O)NC2(C(=O)O)C3CC4CC(C3)CC2C4)nn1-c1ccc(C(=O)N(C)CCCN(C)CCCN(C)C(=O)CN2CCN(CC(=O)[O-])CCN(CC(=O)[O-])CCN(CC(=O)[O-])CC2)cc1C(C)C.[177Lu+3] (stereo not drawn)", "conditions": "concentration not given, 240 min, 37 °C", "scale": "reference: added", "measurement": "internalized activity", "value": "1.76 ± 0.03%"}
{"Compound": "[Cl-].c1csc([I+]c2cccs2)c1", "assay": "DCF flow cytometry", "conditions": "5 µM, 1 h, added: DPI 200 nM", "measurement": "intracellular ROS level", "value": "decreased"}
{"Compound": "Cc1cc(-c2ccccc2)n(-c2nc(-c3ccc(Cl)cc3)c3c(NC(=O)c4ccccc4)nnc-3[nH]2)n1", "assay": "SRB", "conditions": "10 µM, NCI60 single-dose screen, colon cancer", "scale": "reference: untreated", "measurement": "cell growth", "value": "114%"}
{"Compound": "O=C1NC(=NCc2cccs2)S/C1=C\\c1ccc2ncccc2c1", "assay": "MTS", "test system": "colon cancer", "measurement": "IC50", "value": "> 10 µM"}
{"note": "Repeated from above:"}
{"Compound": "CCN(CC)c1ccc(C=NNC(=O)CSc2nc3ccccc3c(=O)n2Cc2ccc(S(N)(=O)=O)cc2)c(O)c1", "assay": "NCI five-dose screen", "measurement": "TGI", "value": "> 100 µM"}
{"Compound": "CCCC(=O)Oc1c(C)c(O)c(C(=O)/C=C/c2ccccc2)c(OC)c1C", "assay": "SRB", "scale": "reference: normal over HT-29 IC50", "measurement": "selectivity index", "value": 0.92}
